Results pooled from the literature.
Parts stem from different laboratories: compare values within a part only.

Study 1 — technique: RNA Bind-n-Seq; molecule type: RNA; matrix: in vitro; concentration: 100 nM; relative to: input RNA pool; direction: higher = stronger binding
Target: RING finger protein unkempt homolog, zinc fingers 1-6, SBP tag (UNK, Homo sapiens, UniProt Q9C0B0, residues 30-357)
Chain of UniProt Q9C0B0 (30-357, looked up): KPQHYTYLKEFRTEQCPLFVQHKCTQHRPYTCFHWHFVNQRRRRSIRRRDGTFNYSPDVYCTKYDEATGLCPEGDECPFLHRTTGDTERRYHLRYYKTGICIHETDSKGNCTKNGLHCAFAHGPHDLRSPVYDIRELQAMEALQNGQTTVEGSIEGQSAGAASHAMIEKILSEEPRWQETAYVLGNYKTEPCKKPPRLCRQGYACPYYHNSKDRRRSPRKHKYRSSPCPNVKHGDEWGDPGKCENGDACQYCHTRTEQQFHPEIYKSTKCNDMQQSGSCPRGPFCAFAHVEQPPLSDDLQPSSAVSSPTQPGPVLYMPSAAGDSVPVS
Setting: RNA with constant flanks, vertebrate orthologous sites, ends assumed
Constant ends, left off below: GGGAGUUCUACAGUCCGACGAUC … CAACAGAGGAUUGAGCAUCA
Oligonucleotide	bound/input enrichment [ratio]
AGCUUCCGGCGACAUUUGGCCUGGCCUUUCAGCGUAUGAUAACAGUCCGAGGUCACCCCACAGUCCUUCUAUUGCCACCCCGCCUAGUCAGAGUUCAUCUUGCUCUGAUGCCCCUUUGCU	0.583
AAAUUUAUUUUAUGCCCUGGACUCCCUACCGCACUGAUACUUUAAUAGAGUAUGCUUCUUUAGAAGAUUUUCAAAACAGCCGCCAGACAACAACAUACAAACUUCCAAACCGAGUAGACG	2.04
GAUUUGGACCUUGGAGCUGAACCAGGGAGCUAGCAAAAGUAAAGCAGACUUAUAAAAUUAUAGCUAUGUGCAGCUGCACAACACAGUCCUACCACUAGCAGCUGUGUUAAAGUAUUUAUA	0.751
AGAAAACUUUAGUCAAGAAUCUGAAAGUAGAAAUGCUGGUUCCUGGUUGUCCUCCUCUCUAAGAAAUAGAUGCACACCUUUAUUUUCAAGGAGACGUCGAGAAGGAAGAGAUGAAUCUAC	0.435
CAGCUGAUUCACUGAUUGGGAGAGCUGCACAUAUAGCUGUUCUUGAUUCAGAAAUAUUUUUAGAAAAAUUCUUUCUGGUUGCUGCCCUCAAAUAUUUCCAGUAGGAUAAAAGCAUUCUUA	0.649
UUUACAAGAUUUGGACCUAGAACCAGGAGUUAGCAAAAGUAAAGCAGGCUUGUAAAAUUACAGUCAUAUGCCACUGCACAGCAACAGUACUACCACUAGCAGCUGUAUUUGUAAAGAAAA	0.746
UGUGCUUACGCUCUUCUAGGGAAGAGAUGAAUUGGGGAGAACUGUCCCCUUUUUAUAGAUCAGUUUGUUUCUAAAUUAUGACCAAAAAAUAUUUUGCUAUUUCUUUCUUUAUAUAUGGAC	0.358
AAUCAACUCAGGUUUUAUUUAUUUUGAAAUUAUCAAUUGUAUGUCUAAUUUAUUGACAAAUAUGAUGGGAUUUUUUUUAUUGUUGAAACCUUGACAGGCAAUUCAUAUUCUCAGCUUCUA	0.256
AGGCACAACUGACUGGUUCACAGCAGCAUUCCUUACAGAAUUAUUUAGCAAAUGCAAGUAUAGUUAAUUUUCAGGAAACAACCAGGCAGUCAUCUUUAUCCUGUAGCUCAAUUGGAGAUU	1.15
AUCUCAUAUUUAAUUUGCUCUUUUGUAUGUAUUAUGUUGUAAAUCUAUUAUGUAACAGUUUACAACAGUCCUUAUAAAAUUUUUAAAAUGGCUACAUCUGCAUAUGGUCUGAAUUCAAGA	0.367
AAAUUUAUUUUAUGCCAUGGACUCCUUAUCGCACGGACACUUUGAUAGAAUAUGCUUCUCUGGAGGACUUCAAAAAUGGUCGUCAAACAACAACAUACAAACUUCCCAACAGAGUGGAUG	1.24

Study 2 — technique: protein-binding microarray; molecule type: double-stranded DNA, one strand shown; matrix: in vitro; concentration: 250 nM; setting: 60-bp whole probe; together with: salmon DNA 0.4 mg/ml; relative to: random background probes; direction: higher = stronger binding; constant ends, left off below: GCCTAGCAC … GTCTTGATTCGCTTGACGCTGCTG
Target: Interferon regulatory factor 5, full length, phosphomimetic (IRF5, Homo sapiens, UniProt Q13568-2, residues 1-514, K96S/S451D/S453D/S456D/S462D)
Oligonucleotide	log fluorescence [z-score]
GAAGGACTGCTTCTCCTGACGTGCTAG	-0.244
TTAGGTATCGGGTTTCGGTCAGTGCTA	8.46
GGTCTTCTGGGCTGTTTGATCGTGCTA	-0.313
GACGGTATCGGGACTGGGGACGTGCTA	1.13
TTAGGTCTCCTTTCCCTTTAGTGCTAG	0.407
AATCATTCACCTGTCGTTGAGTGCTAG	0.592
GACGGACTGGGTATCGGCACGTGCTAG	0.418
GGCGGACTGGACACTGGGGACGTGCTA	-0.768
TTACGTTTCGGTATCGGTTAGTGCTAG	11.5
GCCGATTTCAGACTGGAGACGTGCTAG	0.295
TTAGGTAACCTTCTCCTTTAGTGCTAG	-0.0866
ATGTAATTCCTGCCTGAGCTCGTGCTA	0.11
TCAGTTCTGCTTTGCCTACTGTGCTAG	0.263
GGAGCGCCAGGCCCCGGCAGGTGCTAG	-1.18
CAAACAGAGACCCGGCAAGTGTGCTAG	-0.249
TTGGATATCAGTCTCGATTAGTGCTAG	1.6
TTAGGTATCCTACTGCTTTTGTGCTAG	0.105
TTAGATCTCAGTTTAGATTAGTGCTAG	0.312
TTAGAACTGGGGACTGCATTAGTGCTA	-0.251
TCATTTTTGGTTTCTGGACTGTGCTAG	3.66
GACGGATTGGACACTGGGGACGTGCTA	-0.241
TTAGACATCAGTATCGATTAGTGCTAG	7.08
GAGTTTCTATTTTCTGAATGGTGCTAG	5.73
TACGAACTGGGGTATCGAGACGTGCTA	0.203
TTAGATCTCAGTTTCGATTAGTGCTAG	9.55

Study 3 — technique: protein-binding microarray; molecule type: double-stranded DNA, one strand shown; matrix: in vitro; concentration: not given; direction: higher = stronger binding
Target: Transcription factor SOX-2, HMG box (SOX2, Homo sapiens, UniProt P48431, residues 19-118)
Chain of UniProt P48431 (19-118, looked up): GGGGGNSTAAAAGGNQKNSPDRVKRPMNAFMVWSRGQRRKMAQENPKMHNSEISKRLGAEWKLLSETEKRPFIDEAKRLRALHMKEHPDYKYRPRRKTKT
Setting: k-mer, scored over probes, only values ≥0.25
Oligonucleotide	E-score
AACAAAC	0.271
ATACATA	0.289
CAATTGG	0.339
GTCAATA	0.39
ATTTACA	0.303
AAAGGGA	0.274
TACAAAA	0.252
AATTGGA	0.283
AATACTA	0.325
AGAATAG	0.259
ACAATCT	0.363
AAGAATT	0.351
AATAGCG	0.252
CACAAAA	0.264
AGCTGAT	0.314
GTTATTA	0.263
AAAATGA	0.254
CAACAAA	0.305
ACGGCCT	0.325
AATGGAA	0.308
ATGAAAA	0.277

Study 4 — technique: RNA Bind-n-Seq; molecule type: RNA; matrix: in vitro; concentration: 365 nM; relative to: no-protein control; direction: higher = stronger binding
Target: RNA binding protein fox-1 homolog 2, RRM domain, GST-SBP tag (RBFOX2, Homo sapiens, UniProt O43251-10, residues 100-194)
Setting: natural RNA segment, single round, ends assumed
Constant ends, left off below: GGGAGUUCUACAGUCCGACGAUC … UGGAAUUCUCGGGUGCCAA
Oligonucleotide	RBNS enrichment (R)
CUCUGGCACGCUUGAGAGGAGUCAUGCCACUUUGAUGCUCCUUGCAGAGGUGGGACACUGAGGUGCUUUGCUUAAAUUUCAAAGCUUGCAUAUAUUCAUGUAAAUAUAUG	3.06
CAGUUCCUCAUCCACAGUGCUCCCACCUGAGGACCUGGCCCUGUGUGGAAAUUGAUUGGGAUUUGAUUGUCAGCAACUUGUAUGAGAUUCAUUAAAUGGCCCUGGCAUAC	0.485
CUCAUGUCUGCUUAAAAUUCACGCUGACCUUGCAGAGCACCAGAGCAUGGGGCUGGCAUGCAGGAAGUGCCCUGUAUCUGCAGCAGGAGGCUCUGGGCUGGGACAUGGCU	0.999
UGCCUCCUGCCCCUCCUGGAGUUCAGCUCCUCCUCUGCCGUGGCCCGUGUCUGUCUGGCUCAUCCUUUCUCCUGCCCAGCCUCACACCUGAUCUCCCUUUCCUGUAGACU	0.638
CUUUUGCUUUAUCAGGAACACCAAAAUGAAUUCAGGAGUUUGACUCCCUUAAAAUCUGGUCUGCUUAAUUUCAAUUUUUGUAUCCAUUCUAAUGAUGCAACAUAGCACAG	0.644
GACCAGAAGUUGCACAGACAUGAUUUGUGCUGGAGUCAAGGGGCAGAACAGAAGAAUCUGACAGGCACUAAUUGGAUACUGUGGCUUGUUUGGAUAGAAAUUCUGAAUGG	0.729
CAUAUUUAUGCAAAUUAAAUGCCCUUAAAAUUUUGCCAUUUGUCUUUCAUUUUAAAGGUUAUUUGCCCUCAAUUAUAUAAUUUCAGUGUUAUAAAGUUUAGCUUAAACUC	0.823
GCUGCCCCCUGCAAAGUAAACUCCAAGACAAACCAAACCCAAGGUACAAAUGUGUUACACAUAAAUGUUUUCCUUCCUGGGGGUCUGUGUUGGAUGUUGUGGGCCUGGAG	0.48
CGCAGCUUCUCCAGGAACCCCUCAGAUGCAAGGCAACCCCACUAUGGUGCCCCUGCCCCCCGGGGUCCAGCCGCCUCUGCCGCCCGGGGCCCCUCCCCCUCCGCCGCCUC	0.401
UGAUUACCGUUCUCUGAGGCACUGGAGCCUUCAUACACCUCACCUGCCUUGGCAAGCCUAUUUUUGUGACCUGGCAGCACAGAUUUAACACUAUUCGUUAAAAGCACUUU	0.79
UUGCCACAUCAAGAUUUUAGGGAAGGGGGGUAUAUGUGUAGUAGGGAUGCCGUUUGAAAACAGGCACUCUUCCCCUGAGGAUGGGAAAGGAGCUCUUCAGUUGGAGAUCU	1.32
AGGAACUGUAUUAAAGUUUAGUUUACUAUAGAUUGGUCCCCACUGAAGACUUUCUCCACUCUGACCAGAUUUAUAAAAUUUCUCCUUUCAUAGAUUUAGUCAGAAGCUGU	0.613

Mixed results
Molecule	organism	assay	test system	setting	scale	measurement	value
GSPAKKLFTSTGL	Saccharomyces cerevisiae	peptide binding, yeast competitive growth sequencing	peptide, cyclin F-Cln2 fusion	library 1	direction not given	enrichment score	0.361

For quick reference, copied from above (study 2):
Oligonucleotide	log fluorescence [z-score]
CAAACAGAGACCCGGCAAGTGTGCTAG	-0.249
TTAGGTATCCTACTGCTTTTGTGCTAG	0.105
TTAGATCTCAGTTTAGATTAGTGCTAG	0.312
GACGGACTGGGTATCGGCACGTGCTAG	0.418
TTAGGTCTCCTTTCCCTTTAGTGCTAG	0.407
TTAGGTAACCTTCTCCTTTAGTGCTAG	-0.0866
GGCGGACTGGACACTGGGGACGTGCTA	-0.768
GAGTTTCTATTTTCTGAATGGTGCTAG	5.73
